Assay results from different studies.
Protocols differ between the studies behind these lines. Values joined by “and” are separate records of one study, mostly repeats; a detail may differ. Numbers after ± are the reported error.

The thermodynamic solubility of `CCOc1nc2cccc(C(=O)OC(C)OC(=O)OC3CCCCC3)c2n1Cc1ccc(-c2ccccc2-c2nnn[nH]2)cc1` (stereo not drawn) is reported as 26.3 ± 0.54 mg/g (shake-flask; polysorbate 80; 37 °C).
With `CS(=O)(=O)OC[C@H](O)[C@@H](O)COS(C)(=O)=O` the concentration was 94 µM (Wistar rat, female, plasma; intraperitoneal, 500 mg/kg, 4 h).
The thermodynamic solubility of `COc1ccc2c(c1)c(CC(=O)O)c(C)n2C(=O)c1ccc(Cl)cc1` is reported as 2.02 ± 0.05 mg/g (shake-flask; soybean oil; 37 °C).
`Cc1cc(-c2cc(OC(=O)c3ccccc3)ccc2Cl)cc2nnc(Nc3ccc(OCCN4CCCC4)cc3)nc12` gave a tissue concentration of 46 nM (Dutch Belted rabbit, retina; topical ocular, 40 µL drop of 0.6%, 2 h).
For `NC(=O)CC[C@@H]1NC(=O)[C@H](Cc2ccccc2)NC(=O)[C@H](Cc2ccc(O)cc2)NC(=O)CCSSC[C@@H](C(=O)N2CCC[C@H]2C(=O)N[C@H](CCCN=C(N)N)C(=O)NCC(N)=O)NC(=O)[C@H](CC(N)=O)NC1=O`, “bench top stability” read 93.8% (UPLC-MS/MS; human plasma; 156.23 pg/mL, 6 h, room temperature).
`C[C@@H]1O[C@@H](O[C@H]2[C@H](Oc3cc(O)c4c(c3)O[C@H](c3ccc(O)cc3)CC4=O)O[C@H](CO)[C@@H](O)[C@@H]2O)[C@H](O)[C@H](O)[C@H]1O` gave a Papp A→B of 13.5 nm/s (mass spectrometry; Caco-2; 40 µM, 6 h).
`CCCC[C@H](NC(C)=O)C(=O)N[C@H]1CCC(=O)NC[C@@H](C(=O)N[C@@H](Cc2c[nH]c3ccccc23)C(N)=O)NC(=O)[C@H](CCCNC(=N)N)NC(=O)[C@@H](Cc2ccccc2)NC(=O)[C@H](Cc2c[nH]cn2)NC1=O` gave an AUC(0-t) of 12.6 µg·h/mL (Sprague Dawley rat, male, plasma; subcutaneous, 25.0 mg/kg daily, day 28).
With `CCOC(=O)C1=C(C)NC(C)=C(C(=O)OC)C1c1cccc(Cl)c1Cl` (stereo not drawn) the thermodynamic solubility was 43.9 ± 6.25 mg/g (shake-flask; PEG400; 37 °C).
The Cmax of `Cc1cc(Nc2cc3ncccc3c(N[C@@H]3C[C@H]4CC[C@@H](C3)N4CCC#N)n2)n[nH]1` is reported as 0.0131 µg/mL (Sprague-Dawley rat, female, plasma; oral, 100 mg/kg/day, last day of 4 weeks).
With `CCCC[C@@H]1NC(=O)[C@@H](NC(=O)[C@H](CCC(=O)O)NC(=O)CNC(=O)CN2CCN(CC(=O)O)CCN(CC(=O)O)CCN(CC(=O)O)CC2)CCCCNC(=O)C[C@@H](C(N)=O)NC(=O)[C@H](C(C)C)NC(=O)[C@@H]2CCCN2C(=O)[C@H](CCCNC(=N)N)NC(=O)CNC(=O)[C@H](Cc2c[nH]c3ccccc23)NC(=O)[C@H](CCCNC(=N)N)NC(=O)[C@@H](Cc2ccccc2)NC(=O)[C@H](Cc2c[nH]cn2)NC(=O)[C@H](CCC(=O)O)NC1=O` [indium-111 labelled] the tissue uptake was 0.12 ± 0.05 %ID/g (C57 mice, B16/F10 lung metastatic melanoma, blood; intravenous, 0.037 MBq, 2 h).
`CC(=O)[C@H]1CC[C@H]2[C@@H]3CCC4=CC(=O)CC[C@]4(C)[C@H]3CC[C@]12C` has a thermodynamic solubility of 28.3 ± 2.19 mg/g (shake-flask; polysorbate 80; 37 °C).
`RLQLKL` gave a peptide cleavage of > 80% and > 90% (substrate, gel electrophoresis; peptide, mouse, PyMT tumour, PyMT tumour tissue extract; 5 µM, 16 h, 37 °C, 2% extract, 1 mM ZnCl2).
The Km of `Cc1ccco1` is reported as 195 µM (metabolic activation to acetaldehyde; male Sprague-Dawley rats, pooled liver microsomes; 10 min, high concentrations).
The AUC(0-27 h) of `O=C(O)C[C@H](O)C[C@H](O)/C=C/c1c(C2CC2)nc2ccccc2c1-c1ccc(F)cc1` is reported as 3100 nM·h (male Sprague Dawley rat, control, plasma; oral, 2.5 mg/kg, geometric mean, added: vehicle).
`CCCSc1ccc2nc(NC(=O)OC)[nH]c2c1` gave a thermodynamic solubility of at least 5.75 mg/g (shake-flask; PEG400; 37 °C).
For `NC(=O)c1cnc2[nH]ccc2c1N[C@@H]1[C@@H]2CC3C[C@H]1C[C@@](O)(C3)C2`, the AUC(0-last) was 2.32 µg·h/mL (Japanese, moderate hepatic impairment (Child-Pugh B), plasma; oral, 150 mg single dose, mean).
`CC[C@H](C)[C@@H]1NC(=O)[C@H](Cc2ccc(O)cc2)NC(=O)[C@@H](N)CSSC[C@@H](C(=O)N2CCC[C@H]2C(=O)N[C@@H](CC(C)C)C(=O)NCC(N)=O)NC(=O)[C@H](CC(N)=O)NC(=O)[C@H](CCC(N)=O)NC1=O`: “peak urinary excretion” 227 pg/mg creatinine (human, urine; intranasal, 100 IU).
With `C/C=C/C=C/C=C/CC/C=C/C(=O)NCC(C)(C)O` the recovery was 0.02% (rat, small intestine site 4 contents; oral, dose not given, 4 h, no β-glucuronidase treatment; reference: ingested amount).
Under tissue concentration, `COC(=O)C[C@](O)(CCCC(C)(C)O)C(=O)O[C@@H]1C(OC)=C[C@]23CCCN2CCc2cc4c(cc2[C@H]13)OCO4` is recorded as “not detected” (CD1 mouse, lung; oral, 1 mg/kg, 24 h, below quantification limit 1.00 ng/mL).
`CCN1CCN(Cc2ccc(Nc3ncc(F)c(-c4cc(F)c5nc(C)n(C(C)C)c5c4)n3)nc2)CC1` has a Vdss of 724 L (human, plasma; intravenous, 0.4 mg).
For `C[C@@H]1CN(c2c(F)c(N)c3c(=O)c(C(=O)O)cn(C4CC4)c3c2F)C[C@H](C)N1`, the QTc change was 6.6 ± 0.9% (male Hartley guinea pig, anaesthetized; intravenous infusion, 3 mg/kg, 10 min infusion; reference: baseline).
The AUC(0-25 h) of `COc1c(OCCCN2CCOCC2)ccc2c1N=C(NC(=O)c1cnc(N)nc1)N1CCN=C21` is reported as 0.947 µg·h/mL (human patients, plasma; intravenous, 0.6 mg/kg 3 weeks on 1 week off, cycle 1 day 1).
The AUC(0-inf) of `CNc1nc(Nc2ccc(-n3cnc(C)n3)c(OC)c2)nc2c1CC[C@H]2c1ccc(F)cc1` is reported as 0.153 µg·h/mL (human, plasma; oral, 10 mg, single dose, healthy volunteers).
The AUC(0-7 h) of `O=C(CCCCCCC(=O)Nc1ccccc1)NO` is reported as 15200 nM·h (patients, serum; oral, 600 mg, cycle 1 day 2, added: flavopiridol 30+30 mg/m2).
`C[C@@H](N)c1cc(Cl)ccc1Cn1c(=S)[nH]c(=O)c2[nH]ccc21` has an AUC(tau) of 608 nM·h (healthy Chinese volunteers, plasma; oral, 5 mg once daily, day 10, geometric mean).
`CC(C)=CCc1c(O)c(CC=C(C)C)c2oc3c(O)cccc3c(=O)c2c1O`: “free tumour concentration” 220 ± 10 ng/g (Balb/c nu/nu mice, HT-29 xenograft, tumour tissue; oral, 901 mg/kg xanthones in diet, 2 weeks after implantation).
`Nc1ncn([C@H]2C[C@H](O)[C@@H](CO)O2)c(=O)n1` has an AUC(0-180) of 1990 nM·h (male CD-1 mice, plasma; oral, 167 mg/kg THU + 0.4 mg/kg, day 58).
`CN[C@H](CC(C)C)C(=O)N[C@H]1C(=O)N[C@@H](CC(N)=O)C(=O)N[C@H]2C(=O)N[C@H]3C(=O)N[C@H](C(=O)N[C@H](C(=O)O)c4cc(O)cc(O)c4-c4cc3ccc4O)[C@H](O)c3ccc(c(Cl)c3)Oc3cc2cc(c3O[C@@H]2O[C@H](CO)[C@@H](O)[C@H](O)[C@H]2O[C@H]2C[C@](C)(N)[C@H](O)[C@H](C)O2)Oc2ccc(cc2Cl)[C@H]1O` — result for “peak drug concentration”: 164 ng/µL (LC-MS/MS; New Zealand White rabbit, tibial medullary bone; intravenous, 30 mg/kg, 30 min after infusion).
With `N[C@@H](CC(=O)N1CCn2c(nnc2C(F)(F)F)C1)Cc1cc(F)c(F)cc1F` the AUC(0-2 h) was 0.471 ± 0.196 µg·h/mL (healthy Korean subjects, plasma; oral, 100 mg single dose, ABCB1 C3435T CC).
The tissue/serum ratio of `acyl ghrelin (human)` is reported as 6.16 µL/g (wild-type mice, midbrain; intravenous, dose not given, 10 min, vascular space corrected).
For `COc1cccc(N2CCN(C3=Nc4c(F)cccc4[C@H](CC(=O)O)N3c3cc(C(F)(F)F)ccc3OC)CC2)c1`, the AUC(0-inf) was 30.1 ± 5.48 µg·h/mL (healthy women, plasma; intravenous infusion, 240 mg, day 1, single dose, 30-min infusion).
For `O=C(O)CCCCCCC(=O)O`, “total plasma concentration ratio” read 6 (human hemodialysis patients, plasma; pre-treatment; reference: hemodialysis over normal subjects).
With `CC(C)NC[C@@H](C(=O)N1CCN(c2ncnc3c2[C@H](C)C[C@H]3O)CC1)c1ccc(Cl)cc1` the AUC(0-72 h) was 0.398 µg·h/mL (human, Mild hepatic function, plasma; oral, 100 mg single dose, NCI classification, geometric mean).
Under “share of tissue radioactivity”, `CO[C@@H]1[C@H](O)[C@@H](CO)O[C@H]1n1ccc(=O)[nH]c1=O` is recorded as 2.78% (male CD-1 mice, small intestine without content; intravenous, 1 mg/kg, 1 h).
`CC(C)(Oc1ccc(CCNC(=O)c2ccc(Cl)cc2)cc1)C(=O)O` has a thermodynamic solubility of 36 ± 1.71 mg/g (shake-flask; PEG400; 37 °C).
Under “time above MIC”, `CN[C@H](CC(C)C)C(=O)N[C@H]1C(=O)N[C@@H](CC(N)=O)C(=O)N[C@H]2C(=O)N[C@H]3C(=O)N[C@H](C(=O)N[C@H](C(=O)O)c4cc(O)cc(O)c4-c4cc3ccc4O)[C@H](O)c3ccc(c(Cl)c3)Oc3cc2cc(c3O[C@@H]2O[C@H](CO)[C@@H](O)[C@H](O)[C@H]2O[C@H]2C[C@](C)(N)[C@H](O)[C@H](C)O2)Oc2ccc(cc2Cl)[C@H]1O` is recorded as 156 min (pig, intervertebral disc; intravenous infusion, 1000 mg, infusion 100 min, added: MIC 4 µg/mL).
